{"data": "Assay results pooled from the literature", "note": "A part holds a random share of what one study measured. Changes are numbered by the printed parent chain.", "chain of UniProt Q9H0K1 (whole entry, looked up)": "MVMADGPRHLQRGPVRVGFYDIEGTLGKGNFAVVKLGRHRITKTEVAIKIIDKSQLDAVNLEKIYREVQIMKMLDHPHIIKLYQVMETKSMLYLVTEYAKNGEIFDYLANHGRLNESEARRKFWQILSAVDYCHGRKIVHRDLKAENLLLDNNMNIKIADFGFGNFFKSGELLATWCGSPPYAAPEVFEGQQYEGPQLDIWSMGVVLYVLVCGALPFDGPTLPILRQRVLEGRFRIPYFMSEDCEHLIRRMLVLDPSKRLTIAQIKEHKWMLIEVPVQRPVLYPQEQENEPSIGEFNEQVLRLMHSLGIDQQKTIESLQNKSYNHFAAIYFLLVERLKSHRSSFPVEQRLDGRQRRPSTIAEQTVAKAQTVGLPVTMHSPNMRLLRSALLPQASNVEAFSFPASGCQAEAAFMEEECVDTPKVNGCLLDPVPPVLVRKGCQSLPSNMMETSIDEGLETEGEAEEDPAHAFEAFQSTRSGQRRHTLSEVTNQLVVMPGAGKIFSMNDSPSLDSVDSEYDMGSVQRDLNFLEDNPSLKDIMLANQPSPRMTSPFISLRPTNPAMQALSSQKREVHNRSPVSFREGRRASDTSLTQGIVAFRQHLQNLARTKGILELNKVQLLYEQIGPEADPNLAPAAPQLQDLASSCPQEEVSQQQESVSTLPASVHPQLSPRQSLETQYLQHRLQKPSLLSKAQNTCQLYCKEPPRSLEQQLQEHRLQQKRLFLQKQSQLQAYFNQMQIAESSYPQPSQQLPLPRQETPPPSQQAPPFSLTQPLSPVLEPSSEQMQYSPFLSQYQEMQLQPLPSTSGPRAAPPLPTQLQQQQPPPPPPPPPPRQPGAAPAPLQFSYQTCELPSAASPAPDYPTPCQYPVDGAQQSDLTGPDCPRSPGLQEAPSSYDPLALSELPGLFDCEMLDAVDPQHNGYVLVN", "chain of UniProt Q13523 (whole entry, looked up)": "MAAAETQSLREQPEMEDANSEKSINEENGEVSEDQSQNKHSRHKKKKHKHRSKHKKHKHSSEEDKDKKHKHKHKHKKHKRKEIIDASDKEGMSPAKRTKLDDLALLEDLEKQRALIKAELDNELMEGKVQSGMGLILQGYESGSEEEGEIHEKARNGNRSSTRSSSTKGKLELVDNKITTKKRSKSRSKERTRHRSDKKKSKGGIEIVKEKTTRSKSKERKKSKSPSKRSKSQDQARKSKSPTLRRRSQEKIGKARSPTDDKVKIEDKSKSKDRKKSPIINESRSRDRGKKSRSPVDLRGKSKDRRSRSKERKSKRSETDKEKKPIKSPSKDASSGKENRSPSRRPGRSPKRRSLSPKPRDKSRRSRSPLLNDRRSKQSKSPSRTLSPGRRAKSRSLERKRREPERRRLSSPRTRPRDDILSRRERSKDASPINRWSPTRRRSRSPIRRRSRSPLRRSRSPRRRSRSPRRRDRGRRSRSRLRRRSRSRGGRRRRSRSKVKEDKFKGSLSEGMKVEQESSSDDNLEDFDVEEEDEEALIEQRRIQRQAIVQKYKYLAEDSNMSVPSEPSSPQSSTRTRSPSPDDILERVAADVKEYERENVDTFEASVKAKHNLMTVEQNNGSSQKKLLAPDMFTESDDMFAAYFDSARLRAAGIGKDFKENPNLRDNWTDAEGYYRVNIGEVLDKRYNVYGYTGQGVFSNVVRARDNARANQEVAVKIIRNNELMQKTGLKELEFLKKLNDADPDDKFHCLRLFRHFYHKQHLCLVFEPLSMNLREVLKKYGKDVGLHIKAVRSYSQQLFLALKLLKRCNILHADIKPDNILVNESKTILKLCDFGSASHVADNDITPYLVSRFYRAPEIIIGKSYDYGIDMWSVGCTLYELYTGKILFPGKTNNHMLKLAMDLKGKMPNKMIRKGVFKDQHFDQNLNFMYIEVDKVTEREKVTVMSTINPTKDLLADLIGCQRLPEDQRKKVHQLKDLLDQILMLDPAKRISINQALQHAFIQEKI", "chain of UniProt P19525 (whole entry, looked up)": "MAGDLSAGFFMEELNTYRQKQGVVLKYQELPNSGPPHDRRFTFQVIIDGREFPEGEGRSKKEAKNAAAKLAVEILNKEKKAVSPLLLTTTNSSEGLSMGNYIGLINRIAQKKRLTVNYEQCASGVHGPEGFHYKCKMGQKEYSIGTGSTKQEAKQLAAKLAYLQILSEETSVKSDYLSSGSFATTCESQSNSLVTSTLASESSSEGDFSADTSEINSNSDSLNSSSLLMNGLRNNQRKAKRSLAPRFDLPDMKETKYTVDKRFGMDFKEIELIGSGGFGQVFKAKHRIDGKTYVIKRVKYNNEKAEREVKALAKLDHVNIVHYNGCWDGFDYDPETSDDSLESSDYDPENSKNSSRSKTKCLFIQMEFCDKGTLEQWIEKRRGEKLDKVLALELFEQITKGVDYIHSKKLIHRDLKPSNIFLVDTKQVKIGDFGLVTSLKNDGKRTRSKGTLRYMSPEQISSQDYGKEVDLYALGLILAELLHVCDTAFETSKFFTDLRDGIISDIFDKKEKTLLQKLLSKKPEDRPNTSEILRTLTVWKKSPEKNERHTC", "chain of UniProt P54753 (whole entry, looked up)": "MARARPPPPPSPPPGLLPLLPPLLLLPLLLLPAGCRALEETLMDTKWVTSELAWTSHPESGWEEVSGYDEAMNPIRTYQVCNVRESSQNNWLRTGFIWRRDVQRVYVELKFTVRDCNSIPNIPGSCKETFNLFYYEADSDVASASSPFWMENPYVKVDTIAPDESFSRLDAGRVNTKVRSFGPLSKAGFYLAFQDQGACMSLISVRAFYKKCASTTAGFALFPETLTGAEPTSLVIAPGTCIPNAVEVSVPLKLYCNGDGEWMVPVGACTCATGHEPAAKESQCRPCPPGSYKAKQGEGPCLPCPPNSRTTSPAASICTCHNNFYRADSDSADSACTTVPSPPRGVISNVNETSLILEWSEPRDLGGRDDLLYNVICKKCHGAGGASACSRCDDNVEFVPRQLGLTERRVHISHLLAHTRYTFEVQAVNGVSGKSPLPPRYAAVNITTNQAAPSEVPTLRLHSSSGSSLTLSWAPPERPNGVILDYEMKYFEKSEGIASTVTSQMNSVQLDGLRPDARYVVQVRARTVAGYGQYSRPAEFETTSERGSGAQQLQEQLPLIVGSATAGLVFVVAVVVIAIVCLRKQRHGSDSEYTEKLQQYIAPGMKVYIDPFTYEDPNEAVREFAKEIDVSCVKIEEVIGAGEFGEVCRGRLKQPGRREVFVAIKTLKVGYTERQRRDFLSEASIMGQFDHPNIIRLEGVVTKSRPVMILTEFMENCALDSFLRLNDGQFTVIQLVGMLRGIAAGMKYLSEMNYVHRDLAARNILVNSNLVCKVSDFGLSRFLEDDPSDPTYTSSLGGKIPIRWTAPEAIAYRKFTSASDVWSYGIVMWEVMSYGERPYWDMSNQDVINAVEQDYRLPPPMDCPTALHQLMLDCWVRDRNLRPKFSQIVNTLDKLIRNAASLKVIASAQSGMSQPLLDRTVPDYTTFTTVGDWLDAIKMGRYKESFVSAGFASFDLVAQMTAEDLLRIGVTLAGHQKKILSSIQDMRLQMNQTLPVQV", "chain of UniProt P11309 (whole entry, looked up)": "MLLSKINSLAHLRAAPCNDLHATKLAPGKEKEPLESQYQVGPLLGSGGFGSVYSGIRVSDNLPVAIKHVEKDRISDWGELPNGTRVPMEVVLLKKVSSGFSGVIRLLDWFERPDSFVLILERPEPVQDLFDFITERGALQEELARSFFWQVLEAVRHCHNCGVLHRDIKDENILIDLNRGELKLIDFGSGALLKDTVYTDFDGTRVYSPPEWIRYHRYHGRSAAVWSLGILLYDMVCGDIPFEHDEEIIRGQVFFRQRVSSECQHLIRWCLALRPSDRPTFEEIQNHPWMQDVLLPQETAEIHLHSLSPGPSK", "chain of UniProt P42680 (whole entry, looked up)": "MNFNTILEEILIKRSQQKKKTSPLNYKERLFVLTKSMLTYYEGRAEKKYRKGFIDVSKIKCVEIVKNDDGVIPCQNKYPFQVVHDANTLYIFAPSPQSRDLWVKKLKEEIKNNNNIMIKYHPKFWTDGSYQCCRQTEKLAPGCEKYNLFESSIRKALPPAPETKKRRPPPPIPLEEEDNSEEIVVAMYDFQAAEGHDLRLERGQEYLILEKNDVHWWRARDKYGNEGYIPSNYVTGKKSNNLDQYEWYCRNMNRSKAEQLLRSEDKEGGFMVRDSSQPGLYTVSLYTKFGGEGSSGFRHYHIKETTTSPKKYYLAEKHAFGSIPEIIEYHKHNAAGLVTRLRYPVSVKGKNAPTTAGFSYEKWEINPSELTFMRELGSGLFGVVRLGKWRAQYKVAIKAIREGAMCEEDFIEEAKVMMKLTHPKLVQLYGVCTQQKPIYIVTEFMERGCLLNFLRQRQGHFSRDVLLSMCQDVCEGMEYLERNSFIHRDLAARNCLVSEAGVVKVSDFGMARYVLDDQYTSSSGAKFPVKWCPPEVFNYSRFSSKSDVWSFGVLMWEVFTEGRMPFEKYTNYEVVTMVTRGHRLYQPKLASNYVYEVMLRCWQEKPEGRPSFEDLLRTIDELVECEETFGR", "chain of UniProt Q9UBS0 (whole entry, looked up)": "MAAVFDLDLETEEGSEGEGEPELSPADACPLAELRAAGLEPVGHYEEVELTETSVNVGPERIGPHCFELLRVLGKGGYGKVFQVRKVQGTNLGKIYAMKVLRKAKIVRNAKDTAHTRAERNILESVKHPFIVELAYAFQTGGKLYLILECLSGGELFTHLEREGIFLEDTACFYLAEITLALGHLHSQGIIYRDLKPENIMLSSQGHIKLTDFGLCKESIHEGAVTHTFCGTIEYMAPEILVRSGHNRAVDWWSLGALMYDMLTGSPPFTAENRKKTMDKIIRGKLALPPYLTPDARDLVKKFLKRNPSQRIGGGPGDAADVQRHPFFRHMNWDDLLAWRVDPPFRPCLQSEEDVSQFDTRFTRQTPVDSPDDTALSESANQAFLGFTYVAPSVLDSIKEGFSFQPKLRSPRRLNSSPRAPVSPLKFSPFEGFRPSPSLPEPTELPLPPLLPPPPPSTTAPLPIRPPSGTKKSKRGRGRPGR"}
{"data": "Study 1", "target": "MAFF, bZIP domain (human)", "method": "DHFR protein complementation", "medium": "yeast", "setting": "single substitutions, most at no-binding floor", "baseline": "wild-type JUN-FOS pair", "reading": "higher = stronger binding", "parent": "JUN, bZIP domain (human); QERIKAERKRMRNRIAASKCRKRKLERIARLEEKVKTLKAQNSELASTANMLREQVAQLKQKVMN; partner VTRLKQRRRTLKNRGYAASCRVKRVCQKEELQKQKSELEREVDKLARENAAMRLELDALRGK"}
{"Variant": "L38P", "binding fitness [natural log]": -1.49}
{"Variant": "T37S", "binding fitness [natural log]": -1.27}
{"Variant": "R30K", "binding fitness [natural log]": -1.48}
{"Variant": "L38D", "binding fitness [natural log]": -1.49}
{"Variant": "Q55G", "binding fitness [natural log]": -1.48}
{"Variant": "K39R", "binding fitness [natural log]": -1.35}
{"Variant": "L45N", "binding fitness [natural log]": -1.54}
{"Variant": "I28E", "binding fitness [natural log]": -1.52}
{"data": "Study 2", "cell line": "HaCaT", "concentration": "100 µM", "time": "18 h"}
{"Structure (SMILES)": "CC[C@H]1[C@@H](O)[C@@H]2[C@H](CC[C@]3(C)[C@@H]([C@H](C)CCC(=O)O)CC[C@@H]23)[C@@]2(C)CC[C@@H](O)C[C@@H]12", "viability": "38.2%"}
{"Structure (SMILES)": "C#C[C@]1(O)CC[C@H]2[C@@H]3CCC4=Cc5oncc5C[C@]4(C)[C@H]3CC[C@@]21C", "viability": "16.3%"}
{"Structure (SMILES)": "COc1c(C)c2c(c(O)c1C/C=C(\\C)CCC(=O)O)C(=O)OC2", "viability": "134%"}
{"data": "Study 3", "Structure (SMILES)": "Cc1ccc(NC(=O)c2ccc(CN3CCN(C)CC3)cc2)cc1Nc1nccc(-c2cccnc2)n1", "observed": "enzyme activity", "action": "inhibitor", "concentration": "0.5 µM", "baseline": "control"}
{"target": "Ephrin type-B receptor 3 (EPHB3, Homo sapiens, UniProt P54753)", "remaining activity [%]": 72.4}
{"target": "Tyrosine-protein kinase Tec (TEC, Homo sapiens, UniProt P42680)", "remaining activity [%]": 94.9}
{"target": "Tyrosine-protein kinase Fes/Fps (FES, Homo sapiens, UniProt P07332)", "remaining activity [%]": 101}
{"target": "Serine/threonine-protein kinase SIK2 (SIK2, Homo sapiens, UniProt Q9H0K1)", "remaining activity [%]": 100}
{"target": "Serine/threonine-protein kinase BRSK2 (BRSK2, Homo sapiens, UniProt Q8IWQ3)", "remaining activity [%]": 102}
{"target": "Serine/threonine-protein kinase MARK1 (MARK1, Homo sapiens, UniProt Q9P0L2)", "remaining activity [%]": 74.8}
{"target": "Maternal embryonic leucine zipper kinase (MELK, Homo sapiens, UniProt Q14680)", "remaining activity [%]": 89.2}
{"target": "Casein kinase I isoform delta (CSNK1D, Homo sapiens, UniProt P48730)", "remaining activity [%]": 98}
{"target": "Vascular endothelial growth factor receptor 1 (FLT1, Homo sapiens, UniProt P17948)", "remaining activity [%]": 98.3}
{"target": "Dual specificity tyrosine-phosphorylation-regulated kinase 1A (DYRK1A, Homo sapiens, UniProt Q13627)", "remaining activity [%]": 103}
{"target": "Serine/threonine-protein kinase pim-1 (PIM1, Homo sapiens, UniProt P11309)", "remaining activity [%]": 94.4}
{"target": "Tyrosine-protein kinase JAK2 (JAK2, Homo sapiens, UniProt O60674)", "remaining activity [%]": 97.8}
{"target": "Receptor tyrosine-protein kinase erbB-2 (ERBB2, Homo sapiens, UniProt P04626)", "remaining activity [%]": 105}
{"target": "Ribosomal protein S6 kinase beta-2 (RPS6KB2, Homo sapiens, UniProt Q9UBS0)", "remaining activity [%]": 103}
{"target": "Serine/threonine-protein kinase PAK 5 (PAK5, Homo sapiens, UniProt Q9P286)", "remaining activity [%]": 97}
{"target": "Calcium/calmodulin-dependent protein kinase kinase 1 (CAMKK1, Homo sapiens, UniProt Q8N5S9)", "remaining activity [%]": 96.4}
{"data": "Study 4", "Structure (SMILES)": "CCC(=O)N[C@@H]1CC[C@H](C(=O)N(C)c2ccc(-c3nc4ccccc4o3)cc2)C1", "observed": "cell-free assay", "method": "competition with immobilised ligand", "concentration": "1 µM"}
{"target": "Tyrosine-protein kinase Lck (LCK, Homo sapiens, UniProt P06239)", "remaining binding [%]": 100}
{"target": "Interferon-induced, double-stranded RNA-activated protein kinase (EIF2AK2, Homo sapiens, UniProt P19525)", "remaining binding [%]": 100}
{"target": "Dual specificity mitogen-activated protein kinase kinase 7 (MAP2K7, Homo sapiens, UniProt O14733)", "remaining binding [%]": 98}
{"target": "Serine/threonine-protein kinase PRP4 homolog (PRPF4B, Homo sapiens, UniProt Q13523)", "remaining binding [%]": 77}
{"target": "Proto-oncogene tyrosine-protein kinase receptor Ret (RET, Homo sapiens, UniProt P07949, M918T)", "remaining binding [%]": 100}
{"target": "Bone morphogenetic protein receptor type-1B (BMPR1B, Homo sapiens, UniProt O00238)", "remaining binding [%]": 100}
{"target": "Tyrosine-protein kinase SYK (SYK, Homo sapiens, UniProt P43405)", "remaining binding [%]": 100}
{"target": "MAP kinase-activated protein kinase 5 (MAPKAPK5, Homo sapiens, UniProt Q8IW41)", "remaining binding [%]": 100}
{"data": "Mixed results"}
{"SMILES": "CCOC(=O)[C@@H]1CSCC(=O)N[C@@H](CC)C(=O)N(C)[C@@H](C)C(=O)N[C@@H](CC(C)C)C(=O)N2CCC[C@@H]2C(=O)N(CC(C)C)CC(=O)N[C@@H](CC(C)C)C(=O)N(C)[C@H](C)C(=O)N[C@@H](CC(C)C)C(=O)N1C", "medium": "hydrocarbon/water", "endpoint": "logD", "value": 1.86}
{"note": "Excerpt of the above (study 1):"}
{"Variant": "I28E", "binding fitness [natural log]": -1.52}
{"Variant": "R30K", "binding fitness [natural log]": -1.48}
